Assay results pooled from the literature.
Compare with care: the assays were run in different laboratories. “And” joins repeats or separate records; there may be more than shown. ± gives the spread as reported.
U2AF2: U2AF2 148-342 (Homo sapiens, UniProt P26368)
UniProt P26368, sequence (whole entry, looked up): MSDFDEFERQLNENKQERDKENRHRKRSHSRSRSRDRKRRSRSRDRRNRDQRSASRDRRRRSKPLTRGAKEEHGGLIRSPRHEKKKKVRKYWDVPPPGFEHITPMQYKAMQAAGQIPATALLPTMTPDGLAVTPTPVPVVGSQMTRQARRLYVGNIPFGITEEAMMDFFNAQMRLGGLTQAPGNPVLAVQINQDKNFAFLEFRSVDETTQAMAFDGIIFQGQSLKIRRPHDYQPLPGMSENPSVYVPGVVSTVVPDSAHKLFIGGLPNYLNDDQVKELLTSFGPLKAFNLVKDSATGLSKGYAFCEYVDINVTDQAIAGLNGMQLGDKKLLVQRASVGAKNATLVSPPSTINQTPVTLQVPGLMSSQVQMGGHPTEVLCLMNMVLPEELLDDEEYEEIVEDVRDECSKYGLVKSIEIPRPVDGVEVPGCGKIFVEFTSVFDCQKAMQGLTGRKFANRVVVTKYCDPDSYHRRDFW
B1: human semenogelin-2; sequence looked up; chain QKGGSKGQLPSGSSQFPHGQKGQHYFGQKDQQHTKSKGSFSIQHTYHVDINDHDWTRKSQQYDLNALHKATKSKQHLGGSQQLLNYKQEGRDHDKSKGHFHMIVIHHKGGQAHHGTQNPSQDQGNSPSGKGLSSQCSNTEKRLWVHGLSKEQASASGAQKGRTQGGSQSSYVLQTEELVVNKQQRETKNSHQNKGHYQNVVDVREEHSSKLQTSLHPAHQDRLQHGPKDIFTTQDELLVYNKNQHQTKNLSQDQEHGRKAHKISYPSSRTEERQLHHGEKSVQKDVSKGSISIQTEEKIHGKSQNQVTIHSQDQEHGHKENKISYQSSSTEERHLNCGEKGIQKGVSKGSISIQTEEQIHGKSQNQVRIPSQAQEYGHKENKISYQSSSTEERRLNSGEKDVQKGVSKGSISIQTEEKIHGKSQNQVTIPSQDQEHGHKENKMSYQSSSTEERRLNYGGKSTQKDVSQSSISFQIEKLVEGKSQIQTPNPNQDQWSGQNAKGKSGQSADSKQDLLSHEQKGRYKQESSESHNIVITEHEVAQDDHLTQQYNEDRNPIST
B2: human DDX3X; sequence looked up; chain SHVAVENALGLDQQFAGLDLNSSDNQSGGSTASKGRYIPPHLRNREATKGFYDKDSSGWSSSKDKDAYSSFGSRSDSRGKSSFFSDRGSGSRGRFDDRGRSDYDGIGSRGDRSGFGKFERGGNSRWCDKSDEDDWSKPLPPSERLEQELFSGGNTGINFEKYDDIPVEATGNNCPPHIESFSDVEMGEIIMGNIELTRYTRPTPVQKHAIPIIKEKRDLMACAQTGSGKTAAFLLPILSQIYSDGPGEALRAMKENGRYGRRKQYPISLVLAPTRELAVQIYEEARKFSYRSRVRPCVVYGGADIGQQIRDLERGCHLLVATPGRLVDMMERGKIGLDFCKYLVLDEADRMLDMGFEPQIRRIVEQDTMPPKGVRHTMMFSATFPKEIQMLARDFLDEYIFLAVGRVGSTSENITQKVVWVEESDKRSFLLDLLNATGKDSLTLVFVETKKGADSLEDFLYHEGYACTSIHGDRSQRDREEALHQFRSGKSPILVATAVAARGLDISNVKHVINFDLPSDIEEYVHRIGRTGRVGNLGLATSFFNERNINITKDLLDLLVEAKQEVPSWLENMAYEHHYKGSSRGRSKSSRFSGGFGARDYRQSSGASSSSFSSSRASSSRSGGGGHGSSRGFGGGGYGGFYNSDGYGGNYNSQGVDWWGN
B3: CSDE1, human; sequence looked up; chain MSFDPNLLHNNGHNGYPNGTSAALRETGVIEKLLTSYGFIQCSERQARLFFHCSQYNGNLQDLKVGDDVEFEVSSDRRTGKPIAVKLVKIKQEILPEERMNGQVVCAVPHNLESKSPAAPGQSPTGSVCYERNGEVFYLTYTPEDVEGNVQLETGDKINFVIDNNKHTGAVSARNIMLLKKKQARCQGVVCAMKEAFGFIERGDVVKEIFFHYSEFKGDLETLQPGDDVEFTIKDRNGKEVATDVRLLPQGTVIFEDISIEHFEGTVTKVIPKVPSKNQNDPLPGRIKVDFVIPKELPFGDKDTKSKVTLLEGDHVRFNISTDRRDKLERATNIEVLSNTFQFTNEAREMGVIAAMRDGFGFIKCVDRDVRMFFHFSEILDGNQLHIADEVEFTVVPDMLSAQRNHAIRIKKLPKGTVSFHSHSDHRFLGTVEKEATFSNPKTTSPNKGKEKEAEDGIIAYDDCGVKLTIAFQAKDVEGSTSPQIGDKVEFSISDKQRPGQQVATCVRLLGRNSNSKRLLGYVATLKDNFGFIETANHDKEIFFHYSEFSGDVDSLELGDMVEYSLSKGKGNKVSAEKVNKTHSVNGITEEADPTIYSGKVIRPLRSVDPTQTEYQGMIEIVEEGDMKGEVYPFGIVGMANKGDCLQKGESVKFQLCVLGQNAQTMAYNITPLRRATVECVKDQFGFINYEVGDSKKLFFHVKEVQDGIELQAGDEVEFSVILNQRTGKCSACNVWRVCEGPKAVAAPRPDRLVNRLKNITLDDASAPRLMVLRQPRGPDNSMGFGAERKIRQAGVID

colistin  MIC (Escherichia coli; broth microdilution; clinical isolate RKI-No_514/16): ≤ 0.5 µg/mL
PSMD3 (human)  log2 fold change (CYB5R4 knockout human cells; PP6 interaction, 3xFLAG-PP6C IP-MS; concentration not given; relative to: CYB5R4 KO over parental): -1.57
ACACCCUUC (ssRNA)  Kd (U2AF2; sequencing of bound RNA; RNA; motif only): 2.85 µM
B1 (human semenogelin-2)  log2 fold change (PP6C (human); co-immunoprecipitation, IP-MS; CYB5R4 knockout cells; concentration not given; relative to: CYB5R4 knockout over parental): 3.15
maraviroc  protein level (Western blot; HIV-infected mice, somatosensory cortex; i.p., 120 mg/kg twice daily, 3 weeks post infection; relative to: HIV-infected untreated mice, increase): 1.64 fold
human ME2 K74H  Hill coefficient (enzyme activity, NADH absorbance; without fumarate, with: L-malate varied): 1.71 ± 0.12
Peginesatide  phosphorylation level (UT7/EPO; tyrosine phosphorylation, LC-MS/MS phosphoproteomics, trypsin, item: GAB1 tyrosine 659; 10 nM, 15 min, with: 10 U/mL EPO; relative to: vehicle): 84.6 fold
AAACCUCUUUUCUUUAUAAA (ssRNA)  Kd (U2AF2; MST; RNA): 4.19 ± 1.43 µM
heparin sodium  ACT Emax (human; intravenous infusion, 8 IU/kg/h, day 1 to 6): 128 s
B2 (human DDX3X)  log2 fold change (CYB5R4 knockout human cells; PP4 interaction, 3xFLAG-PP4C IP-MS; concentration not given; relative to: CYB5R4 KO over parental): -0.81
GSGAGIESNV  binding intensity (construct, MBP fusion, human SCRIB, PDZ 3-4; automated holdup; peptide, purified PDZ protein; concentration not given, unit not given; relative to: biotin control resin, higher = stronger binding): 0.253
epoetin alfa  mRNA level (UT7/EPO; RT-qPCR, item: IRF1; concentration not given, 90 min, normalized to HPRT1; relative to: vehicle): 6.3 fold
GSGAGSETVV  normalised SPR binding response (construct, MBP fusion, human SCRIB, PDZ 3-4; surface plasmon resonance; peptide; concentration not given; higher = stronger binding): 0 normalised RU
B3 (CSDE1, human)  log2 fold change (CYB5R4 knockout human cells; PP4 interaction, 3xFLAG-PP4C IP-MS; concentration not given; relative to: CYB5R4 KO over parental): -2.52
VVVGACGVGK  remaining protein (HLA-A*11:01 peptide-β2M single-chain trimer; western blot, item: pMHC-I; peptide, 293T cells; 24 h, unit not given, with: 100 µg/mL cycloheximide; relative to: time zero): 0.742 and 0.72 and 0.728
